Published values from different studies.
Each line is one published result; not all experiments were run side by side. Several values in a cell are separate wells, animals, samples, runs or records. ± marks the error that the study gave.

SMILES	assay	system	setting	how to read	measurement	value
CCCC[C@@H]1NC(=O)[C@H](Cc2ccc(O)cc2)NC(=O)[C@@H]2CCCN2C(=O)[C@H](CC(=O)O)NC(=O)[C@H](C)NC(=O)[C@H](Cc2ccccc2)NC(=O)[C@@H]2CSCCC(=O)N3CN(CN(C3)C(=O)CCSC[C@@H](C(=O)N[C@@H](C)C(N)=O)NC1=O)C(=O)CCSC[C@H](NC(C)=O)C(=O)N[C@@H](CC(C)(C)C)C(=O)N1CCC[C@H]1C(=O)N[C@@H](CCC(=O)O)C(=O)N[C@H](CCCCNC(=O)CCc1cn(CCOCCOCCOCCN(CCOCCOCCOCCC(=O)N[C@H]3CSCCC(=O)N4CN5CN(C4)C(=O)CCSC[C@H](NC(=O)[C@@H](CC(=O)O)NC(=O)[C@H](Cc4cccc6ccccc46)NC(=O)[C@@H]4CCCN4C3=O)C(=O)N[C@@H](CCSC)C(=O)N[C@@H](CCCCNC(=N)N)C(=O)N[C@@H](CC(=O)O)C(=O)N[C@@H](Cc3c[nH]c4ccccc34)C(=O)N[C@@H](CO)C(=O)N[C@@H]([C@@H](C)O)C(=O)N3CCC[C@H]3C(=O)N3C[C@H](O)C[C@H]3C(=O)N[C@@H](Cc3c[nH]c4ccccc34)C(=O)N[C@H](C(N)=O)CSCCC5=O)CCOCCOCCOCCn3cc(CCC(=O)NCCCC[C@H]4NC(=O)[C@H](CCC(=O)O)NC(=O)[C@@H]5CCCN5C(=O)[C@H](CC(C)(C)C)NC(=O)[C@@H](NC(C)=O)CSCCC(=O)N5CN6CN(C5)C(=O)CCSC[C@H](NC(=O)[C@H](Cc5ccc(O)cc5)NC(=O)[C@@H]5CCCN5C4=O)C(=O)N[C@@H](Cc4ccccc4)C(=O)N[C@@H](C)C(=O)N[C@@H](CC(=O)O)C(=O)N4CCC[C@H]4C(=O)N[C@@H](Cc4ccc(O)cc4)C(=O)N[C@@H](CCCC)C(=O)N[C@H](C(=O)N[C@@H](C)C(N)=O)CSCCC6=O)nn3)nn1)C(=O)N1CCC[C@H]1C(=O)N[C@@H](Cc1ccc(O)cc1)C(=O)N2		cynomolgus monkey			CL	4 ± 0.8 mL/min/kg
CSCC[C@H](NC(=O)[C@@H](NC(=O)[C@H](CC(C)C)NC(=O)[C@@H](NC(=O)[C@H](Cc1c[nH]cn1)NC(=O)CCCCCNC(=O)[C@H](CCCNC(=N)N)NC(=O)[C@H](CCCNC(=N)N)NC(=O)[C@H](CCCNC(=N)N)NC(=O)[C@H](CCC(N)=O)NC(=O)[C@H](CCCNC(=N)N)NC(=O)[C@H](CCCNC(=N)N)NC(=O)[C@H](CCCCN)NC(=O)[C@H](CCCCN)NC(=O)[C@H](CCCNC(=N)N)NC(=O)CNC(=O)[C@@H](N)Cc1ccc(O)cc1)C(C)C)C(C)C)C(=O)N[C@@H](CS)C(=O)N[C@@H](C)C(=O)N[C@H](C(N)=O)[C@@H](C)O		C57BL/6J mice	Alzet osmotic pump, 3 mg/kg, 8 weeks		serum Glucose	270 mg/dL and 256 mg/dL and 235 mg/dL
CC(C)C[C@H](NC(=O)[C@H](Cc1ccc(O)cc1)NC(=O)[C@H](C)NC(=O)[C@@H](NC(=O)[C@H](CC(C)C)NC(=O)[C@H](C)NC(=O)[C@H](C)NC(=O)[C@H](CCCCN)NC(=O)CNC(=O)[C@@H](NC(=O)[C@H](Cc1c[nH]cn1)NC(=O)[C@H](CCCCN)NC(=O)CNC(=O)[C@@H](NC(=O)[C@H](Cc1c[nH]cn1)NC(=O)[C@@H](NC(=O)[C@H](C)NC(=O)[C@H](CCCCN)NC(=O)[C@H](CCCCN)NC(=O)[C@H](Cc1ccccc1)NC(=O)[C@H](Cc1c[nH]c2ccccc12)NC(=O)[C@H](CCCCN)NC(=O)CNC(=O)[C@H](Cc1c[nH]c2ccccc12)NC(=O)[C@@H](N)CCCNC(=N)N)[C@@H](C)O)C(C)C)C(C)C)[C@@H](C)O)C(N)=O		zebrafish embryos 28 hpf, E3 medium	1 h		acute toxic concentration	5 µM
C/C(=N\OCCCN1CCCCC1)c1ccc(C(F)(F)F)cc1		rhesus monkey	dose not given, after dosing		PR interval	60 ms and 68 ms
C[C@H](O)[C@@H](NC(=O)[C@H]1CCCN1C(=O)[C@@H](CCCCN)NC(=O)[C@@H](CO)NC(=O)[C@@H](Cc1ccc(O)cc1)NC(=O)[C@@H](CC(N)=O)NC(=O)CCOCCOCCOCCNC(=O)CN1CCN(CC(=O)O)CCN(CC(=O)O)CCN(CC(=O)O)CC1)C(=O)N[C@H](CC(=O)O)C(=O)N[C@H](CCCNC(=N)N)C(=O)N[C@H](CCC(N)=O)C(=O)N[C@H](Cc1ccc(O)cc1)C(=O)N[C@H](Cc1c[nH]cn1)C(=O)N[C@H](Cc1ccccc1)C(N)=O [gallium-68 labelled]		BALB/c nude mice U-87 MG tumour, muscle	intravenous, 1.85 MBq, 2 h, radiolabelled		tissue uptake	0.14 ± 0.04 %ID/g
O=C1NC2(CC2)COc2ncc(F)cc2[C@H]2COCCN2c2ccn3ncc1c3n2		Sprague-Dawley rat, female, spleen	oral, 10 mg/kg/day, 4 weeks dosing, end of recovery		organ-to-body weight ratio	0.271 ± 0.041%
CCCC[C@H]1C(=O)N(C)[C@@H](CCCC)C(=O)N[C@@H](CCCNC(=O)CN2CCN(CC(=O)O)CCN(CC(=O)O)CCN(CC(=O)O)CC2)C(=O)N[C@H](C(=O)NCC(N)=O)CSCC(=O)N[C@@H](Cc2ccc(O)cc2)C(=O)N(C)[C@@H](C)C(=O)N[C@@H](CC(N)=O)C(=O)N2CCC[C@H]2C(=O)N[C@@H](Cc2c[nH]cn2)C(=O)N[C@@H](CC(C)C)C(=O)N(C)CC(=O)N[C@@H](Cc2c[nH]c3ccccc23)C(=O)N[C@@H](CO)C(=O)N[C@@H](Cc2c[nH]c3ccccc23)C(=O)N1C [gallium-68 labelled]		NOD/SCID mice, CHO-hPD-L1 xenograft, tumour over blood	iv, dose not given, 30 min	baseline: tumour over blood	tissue-to-tissue ratio	0.77 ± 0.03
COc1cccc2c1C(=O)c1c(O)c3c(c(O)c1C2=O)CC(O)(C(=O)CO)CC3OC1CC(NC(=O)OC2C=CCCC(C)(C(=O)NCC(=O)O)CC2)C(O)C(C)O1 (stereo not shown)		Sprague Dawley rats male, plasma	intravenous, 21.5 mg/kg/day doxorubicin equivalent, day 5		Cmax	2520 ± 548 ng/mL
CC(C)[C@@H]1NC(=O)CNC(=O)[C@H](CC(N)=O)NC(=O)[C@H](CCCNC(=N)N)NC(=O)[C@H](Cc2ccc(O)cc2)NC(=O)[C@H](C(C)C)NC(=O)[C@@H](NC(=O)[C@@H](NC(=O)[C@H](CC(N)=O)NC(=O)[C@H](Cc2c[nH]c3ccccc23)NC(=O)[C@H](C)NC(=O)[C@H](Cc2ccccc2)NC(=O)CNC(=O)[C@H](CCCCN)NC(=O)[C@H](Cc2ccccc2)NC(=O)[C@H](Cc2ccccc2)NC(=O)[C@H](CCCCN)NC(=O)OCC2c3ccccc3-c3ccccc32)C(C)C)CSSC[C@@H](C(=O)N[C@@H](Cc2c[nH]cn2)C(=O)N[C@@H](CCCNC(=N)N)C(=O)N[C@@H](CCCNC(=N)N)C(=O)N[C@@H](C)C(=O)N[C@@H](CC(N)=O)C(N)=O)NC(=O)[C@H](C(C)C)NC(=O)[C@H](CCCNC(=N)N)NC1=O		ICR mice, blood	intraductal mammary, 5 mg/kg, day 5		mean platelet volume	6.86 ± 0.24 fL
N#[11C]c1ccc(-c2csc(NN=C3CCCC3)n2)cc1		C57BL/6 mice, male, pancreas	intravenous, 3 MBq, 15 min		radioactivity uptake	2.87 ± 0.08 %ID/g
CCCCCCCCCCCCCCCC(=O)NCCCC[C@H](NC(=O)[C@H](CCC(=O)O)NC(=O)[C@H](Cc1ccc(O)cc1)NC(=O)[C@H](CCC(=O)O)NC(=O)COCC(=O)NCCCOCCOCCOCCCNC(=O)[C@H](Cc1ccccc1)NC(=O)[C@H](CC(N)=O)NC(=O)[C@H](Cc1c[nH]cn1)NC(=O)[C@@H](NC(=O)[C@H](CC(=O)O)NC(=O)[C@H](CCC(N)=O)NC(=O)[C@H](CC(C)C)NC(=O)[C@H](CCCCN)NC(=O)[C@H](CCCCN)NC(=O)[C@H](CCCNC(=N)N)NC(=O)[C@H](CC(C)C)NC(=O)[C@H](Cc1c[nH]c2ccccc12)NC(=O)[C@H](CCC(=O)O)NC(=O)[C@@H](NC(=O)[C@H](CCCNC(=N)N)NC(=O)[C@H](CCC(=O)O)NC(=O)[C@H](CCSC)NC(=O)[C@H](CO)NC(=O)[C@H](CC(N)=O)NC(=O)[C@H](CC(C)C)NC(=O)[C@H](Cc1c[nH]cn1)NC(=O)[C@H](CCCCN)NC(=O)CNC(=O)[C@H](CC(C)C)NC(=O)[C@H](CC(N)=O)NC(=O)[C@H](Cc1c[nH]cn1)NC(=O)[C@H](CCSC)NC(=O)[C@H](CC(C)C)NC(=O)[C@H](CCC(N)=O)NC(=O)[C@@H](NC(=O)[C@H](CCC(=O)O)NC(=O)[C@H](CO)NC(=O)[C@@H](NC(=O)[C@@H](N)CO)C(C)C)[C@@H](C)CC)C(C)C)C(C)C)C(=O)N[C@@H](CCC(=O)O)C(=O)N[C@@H](Cc1ccc(O)cc1)C(=O)N[C@@H](CCC(=O)O)C(N)=O	ELISA	female CD-1 mice, blood plasma	subcutaneous, 10 nmol/kg, 4 h		plasma concentration	7.7 nM
CC[C@H](C)[C@H](NC(=O)[C@H](CCCCN)NC(=O)CNC(=O)[C@H](CC(C)C)NC(=O)[C@H](Cc1ccccc1)NC(=O)[C@H](CCCCN)NC(=O)[C@H](CO)NC(=O)[C@H](Cc1ccccc1)NC(=O)[C@H](Cc1c[nH]c2ccccc12)NC(=O)[C@H](CCC(N)=O)NC(=O)[C@@H](NC(=O)[C@H](Cc1ccccc1)NC(=O)CCCCCNC(=O)CN1CCN(CC(=O)O)CCN(CC(=O)O)CCN(CC(=O)O)CC1)C(C)C)C(=O)N[C@@H](CCC(=O)O)C(=O)N1CCC[C@H]1C(=O)N[C@@H](CC(=O)O)C(=O)N[C@H](C(=O)N[C@@H](CO)C(=O)N[C@@H](CCC(N)=O)C(=O)N[C@H](C(=O)N[C@@H](CCC(N)=O)C(=O)N[C@@H](CC(=O)O)C(=O)N1CCC[C@H]1C(=O)N[C@@H](CC(N)=O)C(=O)N[C@@H](CC(=O)O)C(=O)N[C@@H](CCC(N)=O)C(=O)N[C@@H](Cc1ccc(O)cc1)C(=O)N[C@@H](CCC(=O)O)C(=O)N1CCC[C@H]1C(=O)N[C@@H](Cc1ccccc1)C(=O)O)C(C)C)C(C)C [copper-64 labelled]		C57BL/6 mice, male, naive, skeletal muscle	2 h		tissue uptake	0.75 ± 0.1 %ID/g
CCCCCCCCCCCCCCCC(=O)N[C@@H](CCC(=O)NCCOCCOCCC(=O)NCCOCCOCCC(=O)NCCCC[C@H](NC(=O)[C@H](CC(=O)O)NC(=O)[C@H](CC(C)C)NC(=O)[C@H](Cc1ccc(O)cc1)NC(=O)[C@H](CCCCN)NC(=O)[C@H](CO)NC(=O)[C@H](Cc1ccc(O)cc1)NC(=O)[C@H](CC(=O)O)NC(=O)[C@H](CO)NC(=O)[C@@H](NC(=O)[C@H](Cc1ccccc1)NC(=O)[C@@H](NC(=O)CNC(=O)[C@H](CCC(N)=O)NC(=O)[C@@H](CO)NC(=O)[C@@H](N)Cc1c[nH]cn1)[C@@H](C)O)[C@@H](C)O)C(=O)N[C@@H](CCCNC(=N)N)C(=O)N[C@@H](CCCNC(=N)N)C(=O)N[C@@H](C)C(=O)N[C@@H](CCC(N)=O)C(=O)N[C@@H](CC(=O)O)C(=O)N[C@@H](Cc1ccccc1)C(=O)N[C@H](C(=O)N[C@@H](CCC(N)=O)C(=O)N[C@@H](Cc1c[nH]c2ccccc12)C(=O)N[C@@H](CC(C)C)C(=O)N[C@@H](CC(C)C)C(=O)N[C@@H](CC(N)=O)C(=O)N[C@H](C(=O)NCC(=O)NCC(=O)N1CCC[C@H]1C(=O)N[C@@H](CO)C(=O)N[C@@H](CO)C(=O)NCC(=O)N[C@@H](C)C(=O)N1CCC[C@H]1C(=O)N1CCC[C@H]1C(=O)N1CCC[C@H]1C(=O)N[C@@H](CO)C(N)=O)[C@@H](C)O)C(C)C)C(=O)O		rhesus monkey, plasma	subcutaneous, 60 µg/kg		bioavailability	27.5%
